Measured values from different studies.
Parts stem from different laboratories: compare values within a part only.

Block 1 — method: protein-binding microarray; molecule type: double-stranded DNA, one strand shown; matrix: in vitro; tested at: not given; reading: higher = stronger binding; measurement: E-score
Target: Max-binding protein MNT, bHLH-zipper, MAX partner unstated (MNT, Homo sapiens, UniProt Q99583, residues 220-300)
Notes: k-mer, scored over probes, only values ≥0.25
Construct (chain): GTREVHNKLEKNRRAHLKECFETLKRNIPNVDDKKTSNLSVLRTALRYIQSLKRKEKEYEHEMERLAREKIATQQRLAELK
TGTGCACA: 0.298
GAGCCCAC: 0.262
GTGCGGCA: 0.328
ACCATGCG: 0.447
CCAACGAG: 0.298
ACGTGTGC: 0.453

Block 2 — method: competition protein-binding microarray; molecule type: double-stranded DNA, one strand shown; matrix: in vitro; tested at: 2 µM; added: Cbf1 competitor, 0.05 µM; reading: higher = stronger binding; measurement: fluorescence intensity; constant ends, left off below: … GTCTTGATTCGCTTGACGCTGCTG
Target: Phosphate system positive regulatory protein PHO4, full length, GST-tagged (PHO4, Saccharomyces cerevisiae, UniProt P07270, residues 1-312)
Notes: whole 60-bp probe, lowest competitor level
Target sequence (chain): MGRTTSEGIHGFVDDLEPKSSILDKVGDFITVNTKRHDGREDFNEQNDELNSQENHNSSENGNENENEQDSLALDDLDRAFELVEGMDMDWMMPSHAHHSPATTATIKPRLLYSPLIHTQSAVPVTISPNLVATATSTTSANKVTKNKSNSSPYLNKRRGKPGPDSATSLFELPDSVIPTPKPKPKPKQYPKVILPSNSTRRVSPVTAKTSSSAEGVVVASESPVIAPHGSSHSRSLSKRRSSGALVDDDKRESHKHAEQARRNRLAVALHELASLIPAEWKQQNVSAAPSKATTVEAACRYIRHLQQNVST
AGGAGCCCTGATTTCTTCGTGCGATATCGGTGCGGG: 4770 a.u.
AAATTACTAAGTTGTAGGGTGGGTGACGCCGTATGA: 4080 a.u.
TCCACTGAGATGACTACTGTGACGGGTACCAACGGT: 4080 a.u.
CATACCCAACCTTTTCACGTGTACTAAGATATTTGT: 14300 a.u.
CCGCAAGTATGCTGTCATGTGTGCTTAGCAATTACG: 8350 a.u.

Block 3 — method: protein binding microarray; molecule type: double-stranded DNA, one strand shown; matrix: in vitro; tested at: not given; relative to: not given; reading: higher = stronger binding; measurement: E-score
Target: Histone acetyltransferase KAT6A, winged helix 2, GST fusion (KAT6A, Homo sapiens, UniProt Q92794, residues 85-181)
Notes: 8-mer, flanks averaged, mean of 2 arrays, mostly near background
Residues (chain): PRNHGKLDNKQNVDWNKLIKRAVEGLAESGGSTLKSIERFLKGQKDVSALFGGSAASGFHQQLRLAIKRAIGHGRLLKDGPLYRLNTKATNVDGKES
CTTCTCGA: 0.013
AGCGAAAA: 0.196
TGCACTAA: 0.143
CAGATCTC: -0.0929
GCAATCCC: 0.227
CGGGGCAG: 0.128

Single results of other studies
PhoQ, residues 284 288 289 292 302 303 AGGCYF  fold induction (PhoP, residues 12 14 15 18 19 NQGLL (Escherichia coli, UniProt P23836); Sort-seq, refers to: YFP reporter; E. coli; PhoQ-PhoP variant library, added: 10 µM Mg2+; relative to: high Mg2+ state, higher = stronger signaling): 8.47

For quick reference, copied from above (block 3):
CAGATCTC: -0.0929
AGCGAAAA: 0.196
TGCACTAA: 0.143
